Experimental data collected from several papers.
Compare with care: the assays were run in different laboratories.
Technique: steady-state kinetics
B1: enzyme (Polygonum cuspidatum, UniProt B2MWQ7); chain MANVLQEIRNSQKATGPATVLAIGTAVPPTCYPQADYPDFYFRVCKSEHMTQLKKKMQYICDRSGIRQRYMFHTEENLGKNPSMCTFDGASLNARQEMLIMEVPKLGVEAAEKAIKEWGHDKSKITHLIFCTTTSNDMPGADYQFATMFGLNPTVSRTMVYQQGCFAGGTVLRLVKDIAENNKGSRVLVVCSEIVAFAFRGPHEDHIDSLIGQLLFGDGAAALVVGADVDESVEKPIFQIMSASQATIPNSLHTMALHLTEAGLTFHLSKEVPKAVSDNMEELMLEAFKPLGITDWNSIFWQVHPGGKAILDKIEEKLELSKDKMRDSRYILSEYGNLTSACVLFVMDEMRKRSFREGKKTTGDGYEWGVAIGLGPGLTVETIVLRSVPIL
B2: ltaE H83N (Escherichia coli, UniProt P75823); chain MIDLRSDTVTRPSRAMLEAMMAAPVGDDVYGDDPTVNALQDYAAELSGKEAAIFLPTGTQANLVALLSHCERGEEYIVGQAANNYLFEAGGAAVLGSIQPQPIDAAADGTLPLDKVAMKIKPDDIHFARTKLLSLENTHNGKVLPREYLKEAWEFTRERNLALHVDGARIFNAVVAYGCELKEITQYCDSFTICLSKGLGTPVGSLLVGNRDYIKRAIRWRKMTGGGMRQSGILAAAGIYALKNNVARLQEDHDNAAWMAEQLREAGADVMRQDTNMLFVRVGEENAAALGEYMKARNVLINASPIVRLVTHLDVSREQLAEVAAHWRAFLAR
B3: FITM2 (Homo sapiens, UniProt Q8N6M3); chain MEHLERCEWLLRGTLVRAAVRRYLPWALVASMLAGSLLKELSPLPESYLSNKRNVLNVYFVKVAWAWTFCLLLPFIALTNYHLTGKAGLVLRRLSTLLVGTAIWYICTSIFSNIEHYTGSCYQSPALEGVRKEHQSKQQCHQEGGFWHGFDISGHSFLLTFCALMIVEEMSVLHEVKTDRSHCLHTAITTLVVALGILTFIWVLMFLCTAVYFHNLSQKVFGTLFGLLSWYGTYGFWYPKAFSPGLPPQSCSLNLKQDSYKK
B4: PduO (Limosilactobacillus reuteri, UniProt Q50EJ2); chain MKIYTKNGDKGQTRIIGKQILYKNDPRVAAYGEVDELNSWVGYTKSLINSHTQVLSNELEEIQQLLFDCGHDLATPADDERHSFKFKQEQPTVWLEEKIDNYTQVVPAVKKFILPGGTQLASALHVARTITRRAERQIVQLMREEQINQDVLIFINRLSDYFFAAARYANYLEQQPDMLYRNSKDVFR
B5: HGXPRT (Trypanosoma cruzi, UniProt Q4DRC3); chain MISSQQAMVHVVSRNAEGVIVVDGKAYPMAEELVATESVIQRSIKAVAKQIADFYRPLSHRDTHGGGGVAPISDENPLIIISVLKGSYIFTADMVRYLGDYGLPHVVDFLRVASYRGTSSTNKMKLLAETQFKALRGKHVLILEDIVDSGKTLRYILDKVQREHQPATLKVCVLADKPGGRRVTMQPDFVCLTVPNKYVIGYGFEVNDRFRCFRHIFTLRPGEARRYPAHL
B6: protein (Scutellaria baicalensis, UniProt A0A146AUI9); chain MDLVEVTLYAALFLLSAAFLLLIFAGDRSSPPGPFPLPIIGHLHLLGPKLHQSFHGLSQRHGPLMQIRLGSINCVVASTPELAKEFLKTNELVFSSRKHSTAIDIVTYNSSFAFSPYGPYWKYIKKLCTYELLGARNLHHFQPIRTFEVHTFLRLLMEKSESGESFNVTEELIKLTSNVMSNMMLGTRCSATDGEAEAARTVIREVTEIFGEFDAADIIWFCKNFDLQGIRKRSEDIQRRYDALLEKIITDREKLRRSHRGGEAKDFLDIFLDIMDSGNSEVKFSREHLKALILDFFTAGTDTTAISTEWAIAELMNNPKVLKKAQEEIQKVVGSCRLMDESDAPNLPYLEAIIKETFRLHPPIPMLARKSVSDCVIDGYNIPASTLLFVNIWSIGRNPECWDSPFSFRPERFFEKDNASIDIKGQHFQLLPFGTGRRGCPGMLLAIQELLLIIGTMIQCFDWELPEGSGPVDMTERAGLTAPRAEDLICRVSCRVDPKIVF
B7: POLK (Homo sapiens, UniProt Q9UBT6); chain MGLNDNKAGMEGLDKEKINKIIMEATKGSRFYGNELKKEKQVNQRIENMMQQKAQITSQQLRKAQLQVDRFAMELEQSRNLSNTIVHIDMDAFYAAVEMRDNPELKDKPIAVGSMSMLSTSNYHARRFGVRAAMPGFIAKRLCPQLIIVPPNFDKYRAVSKEVKEILADYDPNFMAMSLDEAYLNITKHLEERQNWPEDKRRYFIKMGSSVENDNPGKEVNKLSEHERSISPLLFEESPSDVQPPGDPFQVNFEEQNNPQILQNSVVFGTSAQEVVKEIRFRIEQKTTLTASAGIAPNTMLAKVCSDKNKPNGQYQILPNRQAVMDFIKDLPIRKVSGIGKVTEKMLKALGIITCTELYQQRALLSLLFSETSWHYFLHISLGLGSTHLTRDGERKSMSVERTFSEINKAEEQYSLCQELCSELAQDLQKERLKGRTVTIKLKNVNFEVKTRASTVSSVVSTAEEIFAIAKELLKTEIDADFPHPLRLRLMGVRISSFPNEEDRKHQQ
B8: enzyme (Brachypodium distachyon, UniProt I1HY48); chain MGSIASEERTVTGWAARDADGHLSPYTYTLRKTGPEDVLVKVLYCGICHTDIHQAKNHLGASKYPMVPGHEVVGEVVEVGGEVSKYSAGDVVGVGVIVGCCRECRPCKASVEQYCNKRIWSYNDVYTDGRPTQGGFSSAMVVDQKFVVRIPAGLAPEQAAPLLCAGVTVYSPLKHFGLMSPGLRGGILGLGGVGHMGVKVAKSMGHHVTVISSSGKKRAEAMDDLGADAYLVSSDADQMAAAADSLDYVIDTVPVKHPLEPYLSLLKMDGKLVLMGVIGEPLSFVSPMVMLGRKSITGSFIGSMEETEEVLKFCVEKGLTSQIEVVKMDYLNEALERLERNDVRYRFVVDVAGSKIEDAA
UniProt P38999, sequence (whole entry, looked up): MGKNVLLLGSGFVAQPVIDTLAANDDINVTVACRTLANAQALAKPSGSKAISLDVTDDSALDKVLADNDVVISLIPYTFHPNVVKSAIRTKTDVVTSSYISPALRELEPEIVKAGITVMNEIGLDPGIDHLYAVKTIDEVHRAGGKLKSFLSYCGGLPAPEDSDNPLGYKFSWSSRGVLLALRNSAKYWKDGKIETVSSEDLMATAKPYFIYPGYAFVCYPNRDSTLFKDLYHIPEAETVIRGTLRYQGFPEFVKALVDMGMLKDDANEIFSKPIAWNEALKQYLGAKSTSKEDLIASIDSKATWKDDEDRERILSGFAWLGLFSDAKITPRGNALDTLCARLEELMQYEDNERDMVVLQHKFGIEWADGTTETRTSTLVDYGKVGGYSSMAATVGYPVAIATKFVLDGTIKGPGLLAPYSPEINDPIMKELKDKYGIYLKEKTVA
UniProt P69848, sequence (whole entry, looked up): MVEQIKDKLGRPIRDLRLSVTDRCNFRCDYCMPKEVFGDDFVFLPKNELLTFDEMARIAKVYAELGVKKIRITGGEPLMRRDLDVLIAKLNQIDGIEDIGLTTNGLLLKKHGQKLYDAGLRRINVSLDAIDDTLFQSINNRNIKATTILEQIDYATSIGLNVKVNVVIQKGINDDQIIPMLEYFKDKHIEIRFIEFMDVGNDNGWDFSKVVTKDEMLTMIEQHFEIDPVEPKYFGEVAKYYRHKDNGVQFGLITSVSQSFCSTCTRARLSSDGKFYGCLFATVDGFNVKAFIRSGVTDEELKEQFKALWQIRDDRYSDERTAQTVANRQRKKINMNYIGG
UniProt Q3SY77, sequence (whole entry, looked up): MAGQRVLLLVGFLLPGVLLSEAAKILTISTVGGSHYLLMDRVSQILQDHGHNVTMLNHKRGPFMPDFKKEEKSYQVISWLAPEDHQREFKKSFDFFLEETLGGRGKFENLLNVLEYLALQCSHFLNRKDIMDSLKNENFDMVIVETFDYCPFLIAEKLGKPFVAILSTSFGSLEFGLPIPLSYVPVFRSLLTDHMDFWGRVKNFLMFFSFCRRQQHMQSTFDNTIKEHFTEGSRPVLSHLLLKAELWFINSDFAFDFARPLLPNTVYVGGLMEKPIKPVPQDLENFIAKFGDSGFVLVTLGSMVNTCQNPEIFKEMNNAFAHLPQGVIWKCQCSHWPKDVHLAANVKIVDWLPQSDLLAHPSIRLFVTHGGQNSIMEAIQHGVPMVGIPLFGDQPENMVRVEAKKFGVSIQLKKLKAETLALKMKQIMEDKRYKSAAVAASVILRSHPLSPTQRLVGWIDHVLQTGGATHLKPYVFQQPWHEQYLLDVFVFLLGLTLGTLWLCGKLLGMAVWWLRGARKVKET

The Km of `enzyme (Thermobifida fusca, UniProt Q47RK4)` is reported as 2330 µM (CC(C)(COP(=O)(O)OP(=O)(O)OC[C@H]1O[C@@H](n2cnc3c(N)ncnc32)[C@H](O)[C@@H]1OP(=O)(O)O)[C@@H](O)C(=O)NCCC(=O)NCCSC(=O)CCCC(=O)O; pH 7.4, 37 °C).
For `B1 (enzyme)`, the Km was 79.9 µM (CC(C)(COP(=O)(O)OP(=O)(O)OC[C@H]1O[C@@H](n2cnc3c(N)ncnc32)[C@H](O)[C@@H]1OP(=O)(O)O)[C@@H](O)C(=O)NCCC(=O)NCCSC(=O)CC(=O)O; pH 7, 45 °C).
`B2 (ltaE H83N)` gave a Km of 1700 µM (C[C@H](O)[C@H](N)C(=O)O; pH 7, 30 °C, potassium phosphate 20 mM, retro-aldol cleavage, together with: PLP 500 µM).
`B3 (FITM2)` gave a Km of 10 µM (CCCCCCCC/C=C\CCCCCCCC(=O)SCCNC(=O)CCNC(=O)[C@H](O)C(C)(C)COP(=O)(O)OP(=O)(O)OC[C@H]1O[C@@H](n2cnc3c(N)ncnc32)[C@H](O)[C@@H]1OP(=O)(O)O; pH 7.5, 37 °C, apparent).
`B4 (PduO)` has a Km of 2.2 µM (Nc1ncnc2c1ncn2[C@@H]1O[C@H](COP(=O)(O)OP(=O)(O)OP(=O)(O)O)[C@@H](O)[C@H]1O; pH 8, 37 °C, anoxic, together with: cob(I)alamin).
The Km of `B5 (HGXPRT)` is reported as 30 µM (Nc1nc2nc[nH]c2c(=O)[nH]1; pH 8.3, 37 °C, apparent, together with: PRPP).
For `UGT3A2 (Homo sapiens, UniProt Q3SY77)`, the Km was 214 µM (O=c1ccn([C@@H]2O[C@H](CO[P@@](=O)(O)O[P@@](=O)(O)O[C@H]3O[C@H](CO)[C@@H](O)[C@H](O)[C@H]3O)[C@@H](O)[C@H]2O)c(=O)[nH]1; pH 7.4, 37 °C, not purified, together with: 1-OH-pyrene 16 µM, MgCl2 10 mM, alamethicin).
`Saccharopine reductase (Saccharomyces cerevisiae, UniProt P38999)` has a Km of 11.4 µM (NC(=O)C1=CN([C@@H]2O[C@H](COP(=O)(O)OP(=O)(O)OC[C@H]3O[C@@H](n4cnc5c(N)ncnc54)[C@H](OP(=O)(O)O)[C@@H]3O)[C@@H](O)[C@H]2O)C=CC1; pH 7, 25 °C, together with: AASA, L-glutamate).
The Km of `B6 (protein)` is reported as 0.24 µM (O=C1C[C@@H](c2ccccc2)Oc2cc(O)cc(O)c21; pH 7.9, 28 °C, apparent, not purified, together with: NADPH).
With `protein (Sinorhizobium meliloti, UniProt Q92WA3)` the Km was 310 µM (O=c1ccn([C@@H]2O[C@H](COP(=O)(O)OP(=O)(O)O[C@H]3OC[C@@H](O)[C@H](O)[C@H]3O)[C@@H](O)[C@H]2O)c(=O)[nH]1; pH 7.6, 37 °C, together with: NAD+ 1 mM).
`B7 (POLK)` gave a Km of 0.52 µM (Nc1ccn([C@H]2C[C@H](O)[C@@H](COP(=O)(O)OP(=O)(O)OP(=O)(O)O)O2)c(=O)n1; pH 7.5, 23 °C, MgCl2 5 mM, together with: G template).
`B8 (enzyme)` has a Km of 0.72 µM (NC(=O)c1ccc[n+]([C@@H]2O[C@H](COP(=O)(O)OP(=O)(O)OC[C@H]3O[C@@H](n4cnc5c(N)ncnc54)[C@H](OP(=O)(O)O)[C@@H]3O)[C@@H](O)[C@H]2O)c1; pH 8.8, 23 °C, cofactor varied).
`enzyme (Staphylococcus aureus, UniProt P69848)` gave a Km of 3.1 µM (Nc1nc2c(ncn2[C@@H]2O[C@H](COP(=O)(O)OP(=O)(O)OP(=O)(O)O)[C@@H](O)[C@H]2O)c(=O)[nH]1; pH 7.6, 25 °C).

A few entries again:
`B2 (ltaE H83N)` gave a Km of 1700 µM (C[C@H](O)[C@H](N)C(=O)O; pH 7, 30 °C, potassium phosphate 20 mM, retro-aldol cleavage, together with: PLP 500 µM).
